Measured values of several laboratories.
Each line is one published result; not all experiments were run side by side. ± marks the error that the study gave.

Amino acid sequences for entries named in this document (tags omitted). A change or cut given only in a name is not applied to a line headed by its entry.
UniProt P07949, whole entry, looked up, stated change not applied: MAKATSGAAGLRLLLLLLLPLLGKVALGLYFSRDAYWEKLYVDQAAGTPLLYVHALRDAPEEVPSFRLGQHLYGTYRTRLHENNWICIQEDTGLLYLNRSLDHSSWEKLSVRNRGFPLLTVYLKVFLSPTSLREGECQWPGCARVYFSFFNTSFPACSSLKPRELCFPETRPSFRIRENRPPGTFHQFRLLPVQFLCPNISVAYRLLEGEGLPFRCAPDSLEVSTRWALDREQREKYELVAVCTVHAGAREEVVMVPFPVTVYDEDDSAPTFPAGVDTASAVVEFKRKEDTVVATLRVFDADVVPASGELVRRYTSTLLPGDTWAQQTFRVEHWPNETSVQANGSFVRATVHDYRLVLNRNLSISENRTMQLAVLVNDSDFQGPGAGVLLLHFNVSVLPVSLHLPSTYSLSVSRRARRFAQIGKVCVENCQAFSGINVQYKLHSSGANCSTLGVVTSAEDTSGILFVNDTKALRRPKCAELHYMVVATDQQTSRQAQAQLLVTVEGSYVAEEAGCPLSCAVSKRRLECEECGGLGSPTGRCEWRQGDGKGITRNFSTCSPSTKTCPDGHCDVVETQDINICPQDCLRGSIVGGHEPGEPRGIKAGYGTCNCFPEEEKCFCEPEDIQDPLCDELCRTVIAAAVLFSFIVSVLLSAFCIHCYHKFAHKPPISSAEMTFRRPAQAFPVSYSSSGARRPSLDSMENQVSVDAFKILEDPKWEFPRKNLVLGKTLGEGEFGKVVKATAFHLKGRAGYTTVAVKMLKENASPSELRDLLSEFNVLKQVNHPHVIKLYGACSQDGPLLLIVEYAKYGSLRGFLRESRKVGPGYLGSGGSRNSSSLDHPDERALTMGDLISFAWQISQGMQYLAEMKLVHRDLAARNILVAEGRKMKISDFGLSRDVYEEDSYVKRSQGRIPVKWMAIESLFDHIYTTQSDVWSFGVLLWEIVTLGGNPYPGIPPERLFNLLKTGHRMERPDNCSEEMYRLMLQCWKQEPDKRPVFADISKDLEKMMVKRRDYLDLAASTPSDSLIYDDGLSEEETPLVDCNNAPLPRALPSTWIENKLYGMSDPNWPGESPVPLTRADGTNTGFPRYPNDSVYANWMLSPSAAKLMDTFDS
UniProt P33176, whole entry, looked up: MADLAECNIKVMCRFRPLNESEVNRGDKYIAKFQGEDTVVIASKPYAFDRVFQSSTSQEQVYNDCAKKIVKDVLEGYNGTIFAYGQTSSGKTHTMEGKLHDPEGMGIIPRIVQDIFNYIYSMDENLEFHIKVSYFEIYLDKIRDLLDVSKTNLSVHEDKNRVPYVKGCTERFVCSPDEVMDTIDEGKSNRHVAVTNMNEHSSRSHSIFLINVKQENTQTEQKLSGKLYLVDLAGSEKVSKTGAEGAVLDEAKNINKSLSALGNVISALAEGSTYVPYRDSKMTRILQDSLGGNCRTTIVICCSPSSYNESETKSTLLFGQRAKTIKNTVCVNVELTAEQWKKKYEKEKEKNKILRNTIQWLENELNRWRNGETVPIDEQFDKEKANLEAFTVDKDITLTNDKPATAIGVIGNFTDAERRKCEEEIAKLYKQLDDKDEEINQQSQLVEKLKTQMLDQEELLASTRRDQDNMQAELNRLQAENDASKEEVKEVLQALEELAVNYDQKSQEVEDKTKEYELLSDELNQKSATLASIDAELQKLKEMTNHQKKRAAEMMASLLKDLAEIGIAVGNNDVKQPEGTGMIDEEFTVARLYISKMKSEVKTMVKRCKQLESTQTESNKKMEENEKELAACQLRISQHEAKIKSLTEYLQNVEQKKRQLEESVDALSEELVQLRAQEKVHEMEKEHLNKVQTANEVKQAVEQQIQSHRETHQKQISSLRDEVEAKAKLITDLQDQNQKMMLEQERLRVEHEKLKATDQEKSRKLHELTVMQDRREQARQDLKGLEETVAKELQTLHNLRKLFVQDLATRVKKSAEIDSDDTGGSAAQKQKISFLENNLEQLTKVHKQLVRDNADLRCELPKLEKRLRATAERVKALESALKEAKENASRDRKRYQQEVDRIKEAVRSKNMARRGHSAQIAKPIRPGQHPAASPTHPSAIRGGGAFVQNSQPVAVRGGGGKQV
UniProt P28300, whole entry, looked up: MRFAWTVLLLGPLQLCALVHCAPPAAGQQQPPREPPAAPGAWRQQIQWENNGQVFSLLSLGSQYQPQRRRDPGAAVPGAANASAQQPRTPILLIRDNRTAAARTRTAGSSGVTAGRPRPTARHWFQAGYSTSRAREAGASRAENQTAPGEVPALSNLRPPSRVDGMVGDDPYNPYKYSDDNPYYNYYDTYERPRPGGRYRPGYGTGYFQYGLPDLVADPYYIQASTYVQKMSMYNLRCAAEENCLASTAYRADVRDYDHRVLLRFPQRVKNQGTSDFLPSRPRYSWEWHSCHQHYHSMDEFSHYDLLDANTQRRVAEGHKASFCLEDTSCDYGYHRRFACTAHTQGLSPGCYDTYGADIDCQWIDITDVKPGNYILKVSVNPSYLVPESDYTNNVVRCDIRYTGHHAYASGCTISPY
UniProt O75874, whole entry R132H: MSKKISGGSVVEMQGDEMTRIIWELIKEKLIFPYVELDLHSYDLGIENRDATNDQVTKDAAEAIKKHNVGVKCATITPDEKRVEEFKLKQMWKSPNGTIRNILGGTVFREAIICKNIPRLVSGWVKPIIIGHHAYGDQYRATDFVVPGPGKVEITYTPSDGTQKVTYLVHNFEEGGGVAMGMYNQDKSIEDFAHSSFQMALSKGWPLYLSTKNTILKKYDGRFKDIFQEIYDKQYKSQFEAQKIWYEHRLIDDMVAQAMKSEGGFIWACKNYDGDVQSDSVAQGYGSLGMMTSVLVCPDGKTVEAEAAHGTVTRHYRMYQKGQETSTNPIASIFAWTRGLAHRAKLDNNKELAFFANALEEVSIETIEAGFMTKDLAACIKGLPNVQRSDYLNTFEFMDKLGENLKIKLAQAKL
UniProt Q9BV23, whole entry: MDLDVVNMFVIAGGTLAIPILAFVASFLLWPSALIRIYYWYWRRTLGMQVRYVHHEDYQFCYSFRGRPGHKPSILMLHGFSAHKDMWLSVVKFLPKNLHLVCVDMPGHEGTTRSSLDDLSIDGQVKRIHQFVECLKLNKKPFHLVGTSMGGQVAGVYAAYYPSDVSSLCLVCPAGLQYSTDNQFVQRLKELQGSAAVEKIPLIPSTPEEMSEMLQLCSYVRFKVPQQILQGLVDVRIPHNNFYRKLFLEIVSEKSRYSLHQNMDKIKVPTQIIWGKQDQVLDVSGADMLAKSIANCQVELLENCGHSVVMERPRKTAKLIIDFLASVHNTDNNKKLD
UniProt P19784, whole entry: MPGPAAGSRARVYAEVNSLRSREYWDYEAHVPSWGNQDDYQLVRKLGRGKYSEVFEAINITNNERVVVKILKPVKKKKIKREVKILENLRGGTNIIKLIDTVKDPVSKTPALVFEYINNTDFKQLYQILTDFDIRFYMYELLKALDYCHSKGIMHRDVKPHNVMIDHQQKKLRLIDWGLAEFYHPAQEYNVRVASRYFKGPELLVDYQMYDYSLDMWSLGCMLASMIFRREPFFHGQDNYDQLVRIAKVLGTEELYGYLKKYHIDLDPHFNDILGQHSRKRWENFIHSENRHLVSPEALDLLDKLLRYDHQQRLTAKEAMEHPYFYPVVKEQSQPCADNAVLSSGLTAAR
UniProt Q86X55, whole entry: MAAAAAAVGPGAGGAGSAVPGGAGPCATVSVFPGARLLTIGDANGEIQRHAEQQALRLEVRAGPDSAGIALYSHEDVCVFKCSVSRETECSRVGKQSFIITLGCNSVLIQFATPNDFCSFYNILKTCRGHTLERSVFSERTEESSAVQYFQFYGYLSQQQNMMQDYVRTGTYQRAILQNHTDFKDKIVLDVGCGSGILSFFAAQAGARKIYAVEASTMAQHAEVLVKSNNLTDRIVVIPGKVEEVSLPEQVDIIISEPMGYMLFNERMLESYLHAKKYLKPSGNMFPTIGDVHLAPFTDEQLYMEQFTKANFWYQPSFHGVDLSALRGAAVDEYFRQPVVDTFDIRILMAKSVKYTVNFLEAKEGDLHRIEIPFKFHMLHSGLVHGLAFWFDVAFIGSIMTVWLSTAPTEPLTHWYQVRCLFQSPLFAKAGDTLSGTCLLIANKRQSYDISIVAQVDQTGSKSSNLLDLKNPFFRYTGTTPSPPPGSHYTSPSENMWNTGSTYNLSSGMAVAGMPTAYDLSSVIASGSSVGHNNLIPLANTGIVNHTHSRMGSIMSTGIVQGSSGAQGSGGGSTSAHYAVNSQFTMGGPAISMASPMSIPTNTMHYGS
UniProt P49841, whole entry: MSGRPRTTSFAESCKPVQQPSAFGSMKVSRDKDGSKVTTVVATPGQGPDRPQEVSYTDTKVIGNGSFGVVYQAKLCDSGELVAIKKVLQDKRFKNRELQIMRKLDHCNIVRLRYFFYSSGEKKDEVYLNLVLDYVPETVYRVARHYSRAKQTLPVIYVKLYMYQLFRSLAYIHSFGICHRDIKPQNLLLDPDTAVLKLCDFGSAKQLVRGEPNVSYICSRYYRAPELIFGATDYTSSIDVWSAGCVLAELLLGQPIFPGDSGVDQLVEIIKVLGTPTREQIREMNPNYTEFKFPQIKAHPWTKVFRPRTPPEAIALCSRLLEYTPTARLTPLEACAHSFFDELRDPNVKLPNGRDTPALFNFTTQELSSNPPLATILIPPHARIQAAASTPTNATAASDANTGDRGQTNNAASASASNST
UniProt Q9NV35, whole entry: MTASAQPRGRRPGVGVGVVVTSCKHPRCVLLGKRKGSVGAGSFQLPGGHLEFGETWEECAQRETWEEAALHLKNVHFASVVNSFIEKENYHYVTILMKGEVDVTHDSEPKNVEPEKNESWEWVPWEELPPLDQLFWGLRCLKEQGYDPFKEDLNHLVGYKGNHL
UniProt P31749, whole entry: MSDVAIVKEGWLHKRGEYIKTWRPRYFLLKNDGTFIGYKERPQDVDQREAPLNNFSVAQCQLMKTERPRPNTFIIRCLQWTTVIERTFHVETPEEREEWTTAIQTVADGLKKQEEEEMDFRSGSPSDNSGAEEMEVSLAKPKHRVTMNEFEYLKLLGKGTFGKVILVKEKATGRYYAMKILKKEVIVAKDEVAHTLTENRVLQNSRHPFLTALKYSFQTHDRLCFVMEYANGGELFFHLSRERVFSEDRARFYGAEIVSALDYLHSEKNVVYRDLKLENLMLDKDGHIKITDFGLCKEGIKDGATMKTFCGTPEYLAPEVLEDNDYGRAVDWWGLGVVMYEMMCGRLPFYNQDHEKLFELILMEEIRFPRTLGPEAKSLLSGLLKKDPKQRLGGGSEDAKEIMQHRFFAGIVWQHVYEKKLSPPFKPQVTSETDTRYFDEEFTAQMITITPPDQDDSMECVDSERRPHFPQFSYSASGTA
UniProt O00311, whole entry: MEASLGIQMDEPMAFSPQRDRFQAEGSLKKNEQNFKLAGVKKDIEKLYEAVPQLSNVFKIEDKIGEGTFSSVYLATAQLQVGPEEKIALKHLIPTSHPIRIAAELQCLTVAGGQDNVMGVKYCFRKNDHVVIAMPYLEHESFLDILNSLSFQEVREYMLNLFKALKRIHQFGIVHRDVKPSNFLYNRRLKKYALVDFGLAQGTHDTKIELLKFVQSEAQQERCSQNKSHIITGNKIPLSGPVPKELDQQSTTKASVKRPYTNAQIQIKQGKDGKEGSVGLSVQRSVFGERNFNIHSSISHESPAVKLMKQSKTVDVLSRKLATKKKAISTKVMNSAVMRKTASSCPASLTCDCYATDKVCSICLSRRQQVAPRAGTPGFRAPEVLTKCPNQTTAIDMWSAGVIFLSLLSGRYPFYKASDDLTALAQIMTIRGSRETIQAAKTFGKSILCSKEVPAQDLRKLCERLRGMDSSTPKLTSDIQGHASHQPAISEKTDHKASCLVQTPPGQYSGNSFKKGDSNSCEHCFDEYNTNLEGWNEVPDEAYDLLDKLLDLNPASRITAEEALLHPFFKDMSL
UniProt P03372, whole entry: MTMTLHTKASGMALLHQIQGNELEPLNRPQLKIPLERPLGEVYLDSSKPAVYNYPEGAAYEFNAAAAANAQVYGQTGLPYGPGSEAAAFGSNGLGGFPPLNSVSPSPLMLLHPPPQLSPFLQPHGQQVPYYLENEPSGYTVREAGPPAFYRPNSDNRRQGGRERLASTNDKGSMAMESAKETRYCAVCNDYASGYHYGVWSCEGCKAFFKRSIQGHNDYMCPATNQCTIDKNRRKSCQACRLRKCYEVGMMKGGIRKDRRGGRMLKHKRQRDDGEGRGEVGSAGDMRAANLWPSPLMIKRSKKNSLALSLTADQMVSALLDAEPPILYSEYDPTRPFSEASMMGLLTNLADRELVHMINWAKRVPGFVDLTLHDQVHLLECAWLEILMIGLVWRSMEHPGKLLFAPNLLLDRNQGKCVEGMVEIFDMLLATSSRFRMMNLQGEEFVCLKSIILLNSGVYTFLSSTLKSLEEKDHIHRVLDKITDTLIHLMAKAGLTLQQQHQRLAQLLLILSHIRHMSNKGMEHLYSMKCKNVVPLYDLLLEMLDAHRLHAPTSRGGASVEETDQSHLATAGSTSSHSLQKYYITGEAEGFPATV

The IC50 of `COc1cc(OC)c2c(=O)c(OC)c(-c3ccccc3)oc2c1` is reported as 16300 ± 1930 nM (Pde5a (Mus musculus, UniProt Q8CG03); enzyme activity, inhibitor).
`CN1CCN(Cc2ccc(NC(=O)c3cncc(C#Cc4c(N)ncc5ccc(F)cc45)c3)cc2C(F)(F)F)CC1` gave an IC50 of 17.8 ± 0.51 nM (Kinesin-1 heavy chain/ Tyrosine-protein kinase receptor RET (RET/KIF5B, Homo sapiens, UniProt P07949+P33176, G810C); cell viability, inhibitor, CellTiter-Glo; Ba/F3 KIF5B-RET G810C).
With `Cc1nc(N)sc1-c1csc(Nc2ccc(S(N)(=O)=O)cc2)n1` the IC50 was 3500 nM (Protein-lysine 6-oxidase (Homo sapiens, UniProt P28300); LOX activity, inhibitor; MDA-MB-231).
`C[C@H](Nc1nc(N[C@@H](C)C2CC2)nc(-c2cccc(C(F)(F)F)n2)n1)C1CC1` gave an IC50 of 59 nM (Isocitrate dehydrogenase [NADP] cytoplasmic, homodimer (IDH1, Homo sapiens, UniProt O75874, R132H); enzyme activity, inhibitor, diaphorase/resazurin coupled).
`COc1ccc2[nH]cc(CCc3ccccc3)c2c1` has an IC50 of greater than 20000 nM (Amyloid-beta precursor protein, amyloid-beta peptide (APP, Homo sapiens, UniProt P05067); Aβ42 oligomerisation, ELISA).
`COC(=O)[C@@H]1C(c2nc3cc(C(F)(F)F)ccc3s2)=Cc2cc3c(cc2[C@H]1c1cc(OC)c(OC)c(OC)c1)OCO3` has a selectivity index of greater than 2.4 (Leishmania; mouse splenocytes; baseline: CC50 over amastigote EC50).
`COc1ccc2nc3ccc(OC)cc3c(SCCCN(C)C)c2c1` gave an IC50 of 46 nM (Serine/threonine-protein kinase haspin (HASPIN, Homo sapiens, UniProt Q8TF76); inhibitor, TR-FRET; together with: histone H3 peptide).
`COc1cc2c(cc1OC)C(=O)C(=Cc1ccccc1OC(=O)N(C)C)C2` has an IC50 of 3.63 nM (Cocaine esterase (CES2, Homo sapiens, UniProt O00748); intracellular enzyme activity; HepG2; 1 h, together with: fluorogenic substrate 10 µM).
`O=C(OC(C(F)(F)F)C(F)(F)F)N1CCc2c(Br)cccc2C1` gave an IC50 of 10 ± 0.5 nM (Monoacylglycerol lipase ABHD6 (ABHD6, Homo sapiens, UniProt Q9BV23); inhibitor, fluorescence).
With `O=C1Nc2cccc(C#CC3(O)CCNCC3)c2/C1=C/c1cc2ccccc2[nH]1` the IC50 was 42 nM (Serine/threonine-protein kinase TAO3 (TAOK3, Homo sapiens, UniProt Q9H2K8); enzyme activity, TR-FRET HTRF KinEASE).
`CC(=O)Nc1cc(Nc2cc(NC3CC3)n3ncc(C#N)c3n2)ccc1N(C)Cc1ccccc1` gave an IC50 of 94 nM (Casein kinase II subunit alpha' (CSNK2A2, Homo sapiens, UniProt P19784); inhibitor).
The remaining activity of `COC(=O)[C@@]1(C)C=C(C(=O)Nc2cccc(C(=O)NC34CC(Nc5nccc(-c6cccnc6)n5)(C3)C4)c2)C(=O)CC1` is reported as 1 fraction of control (Mitogen-activated protein kinase 9 (MAPK9, Homo sapiens, UniProt P45984); enzyme activity, inhibitor; 0.0007527 µM).
`COc1ccc(N=Nc2c(S(=O)(=O)OC(C)C)cc3cc(Nc4nc(Cl)nc(Cl)n4)ccc3c2O)cc1` has an IC50 of 52400 ± 6600 nM (Histone-arginine methyltransferase CARM1 (CARM1, Homo sapiens, UniProt Q86X55); histone methylation; together with: histone 3).
`CN1CC[C@H](c2c(O)cc(O)c3c(=O)cc(-c4ccccc4F)oc23)[C@H](O)C1` gave an IC50 of greater than 1000 nM (Glycogen synthase kinase-3 beta (GSK3B, Homo sapiens, UniProt P49841); ATP at Km).
`O=c1[nH]c2ccc(S(=O)(=O)N3CCNCC3)cc2o1` gave an IC50 of greater than 100000 nM (Nucleotide triphosphate diphosphatase NUDT15 (NUDT15, Homo sapiens, UniProt Q9NV35); enzyme activity, inhibitor, malachite green; together with: dGTP).
The IC50 of `Fc1cnccc1-c1ccc(C2(c3ccc(Cl)cc3)CCNCC2)cc1` is reported as 80 nM (RAC-alpha serine/threonine-protein kinase (AKT1, Homo sapiens, UniProt P31749); kinase activity, inhibitor, radiometric HotSpot; together with: ATP 10 µM).
`Nc1ncc(-c2ccc3ncnc(N4CCc5cc(F)c(Cl)cc54)c3c2)cn1` gave a Tmax of 1 h (CD1 mouse, plasma; intraperitoneal, 50 mg/kg).
For `Cc1ncsc1-c1ccc([C@H](C)NC(=O)[C@@H]2C[C@@H](O)CN2C(=O)[C@@H](NC(=O)CCCCCCC(=O)N2CCN(C[C@]3(C)CCC(c4ccc(Cl)cc4)=C(CN4CCN(c5ccc(C(=O)NS(=O)(=O)c6ccc(N[C@H](CCN7CCOCC7)CSc7ccccc7)c(S(=O)(=O)C(F)(F)F)c6)cc5)CC4)C3)CC2)C(C)(C)C)cc1`, mRNA level read “decreased” (item: Cdkn2a; naturally aged mice, spleen; intraperitoneal, 5 mg/kg every 3 days).
With `CC(C)[C@H](N)c1nc2cc(-c3cc(F)ncc3F)sc2c(=O)[nH]1` the IC50 was 113 ± 4.53 nM (Cell division cycle 7-related protein kinase (CDC7, Homo sapiens, UniProt O00311); enzyme activity, inhibitor).
For `CC(C)NC(=O)CSc1nc2ccc(NC(=O)CSc3ccccc3C(F)(F)F)cc2s1`, the IC50 was 20000 to 50000 nM (Estrogen receptor (ESR1, Homo sapiens, UniProt P03372); reporter gene, antagonist; HEC-1 transfected ERα luciferase reporter).
`COc1cccc(C(=O)Nc2ccc(-c3nc4ccc(NC(=O)c5cccc(OC)c5)cc4s3)cc2)c1` has an IC50 of greater than 100000 nM (Tyrosine-protein kinase SYK, with FCER1G (SYK, Homo sapiens, UniProt P43405); protein binding, inhibitor, TR-FRET).
`COc1nc(-c2ccccc2)n(-c2ccc(C#N)cc2)n1` has an IC50 of 1 ± 1.4 nM (Prostaglandin G/H synthase 1 (PTGS1, Homo sapiens, UniProt P23219); thromboxane B2 production, inhibitor, enzyme immunoassay; human whole blood).
The IC50 of `O=C(NO)c1cccc(F)c1` is reported as 505 nM (Protein deacetylase HDAC6 (HDAC6, Homo sapiens, UniProt Q9UBN7); enzyme activity, inhibitor, electrophoretic mobility shift; together with: FAM-RHKK(Ac)-NH2 1 µM).
`CCOC(=O)COC(=O)[C@@H]1C(C=O)=Cc2cc3c(cc2[C@H]1c1cc(OC)c(OC)c(OC)c1)OCO3` has a selectivity index of greater than 23.4 (Leishmania; mouse splenocytes; baseline: CC50 over amastigote EC50).

A few entries again:
The IC50 of `O=C(NO)c1cccc(F)c1` is reported as 505 nM (Protein deacetylase HDAC6 (HDAC6, Homo sapiens, UniProt Q9UBN7); enzyme activity, inhibitor, electrophoretic mobility shift; together with: FAM-RHKK(Ac)-NH2 1 µM).
